Assay results pooled from the literature.
Parts stem from different laboratories: compare values within a part only. “And” joins repeats or separate records; there may be more than shown.
UniProt P37173, sequence (whole entry, looked up): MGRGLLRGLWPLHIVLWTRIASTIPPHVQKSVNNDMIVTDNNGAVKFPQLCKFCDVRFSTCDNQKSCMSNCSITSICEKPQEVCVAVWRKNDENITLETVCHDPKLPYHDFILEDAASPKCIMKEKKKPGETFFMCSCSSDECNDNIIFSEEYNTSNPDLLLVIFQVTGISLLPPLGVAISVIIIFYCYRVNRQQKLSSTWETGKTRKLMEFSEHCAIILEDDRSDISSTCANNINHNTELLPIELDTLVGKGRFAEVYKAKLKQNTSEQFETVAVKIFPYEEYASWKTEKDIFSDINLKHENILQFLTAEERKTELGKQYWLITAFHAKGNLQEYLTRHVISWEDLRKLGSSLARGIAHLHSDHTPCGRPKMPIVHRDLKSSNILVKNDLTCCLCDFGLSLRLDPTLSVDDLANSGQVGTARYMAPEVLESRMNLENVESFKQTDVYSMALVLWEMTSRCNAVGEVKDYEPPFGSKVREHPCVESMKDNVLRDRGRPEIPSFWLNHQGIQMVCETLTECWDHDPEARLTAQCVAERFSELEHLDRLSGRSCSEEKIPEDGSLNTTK
UniProt P11802, sequence (whole entry, looked up): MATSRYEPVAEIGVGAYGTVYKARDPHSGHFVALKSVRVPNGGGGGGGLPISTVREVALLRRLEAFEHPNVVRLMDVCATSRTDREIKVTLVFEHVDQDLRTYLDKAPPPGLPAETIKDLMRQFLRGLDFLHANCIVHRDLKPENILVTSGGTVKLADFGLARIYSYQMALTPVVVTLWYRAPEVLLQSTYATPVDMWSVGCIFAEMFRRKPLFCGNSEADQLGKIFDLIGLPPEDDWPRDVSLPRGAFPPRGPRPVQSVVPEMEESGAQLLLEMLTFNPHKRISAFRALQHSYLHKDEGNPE
UniProt P45984, sequence (whole entry, looked up): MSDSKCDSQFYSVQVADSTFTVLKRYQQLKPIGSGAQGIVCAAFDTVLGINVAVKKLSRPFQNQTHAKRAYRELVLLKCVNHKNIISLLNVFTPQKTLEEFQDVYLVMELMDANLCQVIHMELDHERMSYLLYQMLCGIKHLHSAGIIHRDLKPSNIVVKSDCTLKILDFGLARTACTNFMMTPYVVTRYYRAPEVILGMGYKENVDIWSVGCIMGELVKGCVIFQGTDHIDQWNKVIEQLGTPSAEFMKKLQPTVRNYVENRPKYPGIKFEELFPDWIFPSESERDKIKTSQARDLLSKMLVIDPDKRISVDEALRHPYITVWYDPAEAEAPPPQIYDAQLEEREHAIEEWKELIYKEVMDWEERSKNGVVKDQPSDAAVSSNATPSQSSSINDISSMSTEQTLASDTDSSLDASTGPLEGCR
UniProt P53355, sequence (whole entry, looked up): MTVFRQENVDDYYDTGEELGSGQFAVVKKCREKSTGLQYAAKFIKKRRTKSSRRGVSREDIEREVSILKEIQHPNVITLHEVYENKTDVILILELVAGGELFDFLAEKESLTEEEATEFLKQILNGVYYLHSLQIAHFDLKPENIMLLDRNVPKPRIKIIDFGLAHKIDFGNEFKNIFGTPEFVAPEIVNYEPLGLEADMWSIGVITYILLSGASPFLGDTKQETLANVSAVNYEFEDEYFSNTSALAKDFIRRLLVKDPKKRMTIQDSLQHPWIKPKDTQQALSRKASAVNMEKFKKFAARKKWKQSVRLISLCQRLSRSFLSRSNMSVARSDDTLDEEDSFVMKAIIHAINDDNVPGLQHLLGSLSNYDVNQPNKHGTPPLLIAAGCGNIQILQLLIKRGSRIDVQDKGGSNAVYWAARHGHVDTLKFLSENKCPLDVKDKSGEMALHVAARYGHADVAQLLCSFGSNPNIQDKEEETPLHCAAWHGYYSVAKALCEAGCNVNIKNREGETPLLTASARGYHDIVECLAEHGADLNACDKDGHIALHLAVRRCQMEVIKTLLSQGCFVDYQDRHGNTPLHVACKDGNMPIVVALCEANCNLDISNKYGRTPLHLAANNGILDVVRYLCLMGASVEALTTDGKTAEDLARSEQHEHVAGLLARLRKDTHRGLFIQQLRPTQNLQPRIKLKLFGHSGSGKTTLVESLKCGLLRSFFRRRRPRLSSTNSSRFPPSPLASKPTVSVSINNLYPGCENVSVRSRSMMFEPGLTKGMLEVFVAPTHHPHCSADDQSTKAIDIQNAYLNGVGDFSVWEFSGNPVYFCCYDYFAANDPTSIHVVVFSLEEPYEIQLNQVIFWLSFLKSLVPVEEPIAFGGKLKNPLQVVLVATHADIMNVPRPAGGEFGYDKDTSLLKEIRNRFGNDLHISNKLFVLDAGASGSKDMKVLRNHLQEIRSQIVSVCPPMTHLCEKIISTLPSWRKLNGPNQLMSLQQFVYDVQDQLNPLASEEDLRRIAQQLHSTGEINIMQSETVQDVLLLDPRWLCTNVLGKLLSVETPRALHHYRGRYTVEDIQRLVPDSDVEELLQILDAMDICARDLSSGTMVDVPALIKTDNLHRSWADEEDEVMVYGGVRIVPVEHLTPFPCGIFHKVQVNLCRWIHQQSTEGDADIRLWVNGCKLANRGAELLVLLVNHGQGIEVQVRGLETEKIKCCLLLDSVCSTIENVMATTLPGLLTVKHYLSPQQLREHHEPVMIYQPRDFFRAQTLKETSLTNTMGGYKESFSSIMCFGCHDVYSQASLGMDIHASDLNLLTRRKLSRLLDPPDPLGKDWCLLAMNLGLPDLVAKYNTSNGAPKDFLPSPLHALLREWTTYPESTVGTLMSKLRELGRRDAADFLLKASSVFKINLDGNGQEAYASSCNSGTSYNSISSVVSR
UniProt Q96RR4, sequence (whole entry, looked up): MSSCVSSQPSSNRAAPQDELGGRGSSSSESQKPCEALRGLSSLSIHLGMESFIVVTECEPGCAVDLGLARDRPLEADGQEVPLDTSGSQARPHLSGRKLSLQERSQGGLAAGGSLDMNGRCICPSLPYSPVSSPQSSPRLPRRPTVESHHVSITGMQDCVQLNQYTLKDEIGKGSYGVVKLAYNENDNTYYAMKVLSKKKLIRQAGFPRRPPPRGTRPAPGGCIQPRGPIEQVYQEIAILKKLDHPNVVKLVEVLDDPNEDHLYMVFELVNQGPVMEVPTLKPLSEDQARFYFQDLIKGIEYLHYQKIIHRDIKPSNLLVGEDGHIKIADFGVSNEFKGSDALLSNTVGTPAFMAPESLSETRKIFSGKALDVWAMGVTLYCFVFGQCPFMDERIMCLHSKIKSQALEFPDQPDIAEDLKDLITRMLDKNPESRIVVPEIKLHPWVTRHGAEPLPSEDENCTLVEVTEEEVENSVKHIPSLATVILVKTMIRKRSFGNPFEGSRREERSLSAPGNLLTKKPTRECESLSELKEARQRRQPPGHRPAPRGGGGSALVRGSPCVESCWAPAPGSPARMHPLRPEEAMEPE
UniProt Q15831, sequence (whole entry, looked up): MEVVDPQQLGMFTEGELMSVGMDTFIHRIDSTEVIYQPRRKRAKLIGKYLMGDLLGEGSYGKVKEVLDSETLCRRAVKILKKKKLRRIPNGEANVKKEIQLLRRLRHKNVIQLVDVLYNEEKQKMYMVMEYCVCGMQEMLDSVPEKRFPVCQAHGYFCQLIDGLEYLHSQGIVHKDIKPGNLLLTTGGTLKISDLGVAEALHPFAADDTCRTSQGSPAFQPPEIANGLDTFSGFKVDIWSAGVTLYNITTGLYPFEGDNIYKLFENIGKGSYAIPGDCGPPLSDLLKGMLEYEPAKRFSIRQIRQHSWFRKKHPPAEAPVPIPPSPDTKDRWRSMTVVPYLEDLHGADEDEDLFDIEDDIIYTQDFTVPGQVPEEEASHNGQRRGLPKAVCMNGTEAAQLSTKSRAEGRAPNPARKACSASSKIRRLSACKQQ

Set 1
SMILES: CCc1ccccc1C(=O)Nc1n[nH]c2c(C)c(F)c(C3C(C#N)=C(C)N(C)C(C)=C3C#N)cc12
Technique: competition with immobilised ligand
Concentration: 1 µM
Measurement: remaining binding
target = STK25 (Homo sapiens, UniProt O00506); effect on = cell-free assay; result = 80%
target = NEK1 (Homo sapiens, UniProt Q96PY6); effect on = cell-free assay; result = 100%
target = PIK3C2G (Homo sapiens, UniProt O75747); effect on = binding; result = 95%
target = PRKD1 (Homo sapiens, UniProt Q15139); effect on = cell-free assay; result = 100%
target = NEK9 (Homo sapiens, UniProt Q8TD19); effect on = cell-free assay; result = 93%
target = RET (Homo sapiens, UniProt P07949); effect on = cell-free assay; result = 65%
target = PAK3 (Homo sapiens, UniProt O75914); effect on = cell-free assay; result = 86%
target = Tyrosine-protein kinase ABL1, phosphorylated (ABL1, Homo sapiens, UniProt P00519, F317L); effect on = cell-free assay; result = 89%
target = CDK8 (Homo sapiens, UniProt P49336); effect on = cell-free assay; result = 71%
target = Ribosomal protein S6 kinase alpha-5, N-terminal kinase domain (RPS6KA5, Homo sapiens, UniProt O75582); effect on = cell-free assay; result = 1%
target = EPHA6 (Homo sapiens, UniProt Q9UF33); effect on = cell-free assay; result = 57%
target = MAPK14 (Homo sapiens, UniProt Q16539); effect on = cell-free assay; result = 100%
target = MAPK9 (Homo sapiens, UniProt P45984); effect on = cell-free assay; result = 67%
target = PRKCH (Homo sapiens, UniProt P24723); effect on = cell-free assay; result = 32%
target = ERBB2 (Homo sapiens, UniProt P04626); effect on = cell-free assay; result = 71%
target = MAST1 (Homo sapiens, UniProt Q9Y2H9); effect on = cell-free assay; result = 100%
target = Cyclin-dependent kinase 4, with cyclin D1 (CDK4, Homo sapiens, UniProt P11802); effect on = cell-free assay; result = 98%
target = NIM1K (Homo sapiens, UniProt Q8IY84); effect on = cell-free assay; result = 100%
target = TGFBR2 (Homo sapiens, UniProt P37173); effect on = cell-free assay; result = 82%
target = MAPK13 (Homo sapiens, UniProt O15264); effect on = cell-free assay; result = 96%
target = PRKAA2 (Homo sapiens, UniProt P54646); effect on = cell-free assay; result = 0%
target = MAP3K2 (Homo sapiens, UniProt Q9Y2U5); effect on = cell-free assay; result = 100%
target = Tyrosine-protein kinase ABL1, phosphorylated (ABL1, Homo sapiens, UniProt P00519, T315I); effect on = cell-free assay; result = 72%
target = Tyrosine-protein kinase ABL1, phosphorylated (ABL1, Homo sapiens, UniProt P00519, E255K); effect on = binding; result = 88%
target = MAPK15 (Homo sapiens, UniProt Q8TD08); effect on = cell-free assay; result = 81%

Set 2
Cell line: HuT78
Concentration: 2 µM
Time: 48 h
Relative to: untreated
Measurement: viability
SMILES = COc1ccc(-c2ccc3ncc4c(c3c2)n(-c2ccc(N3CCNCC3)c(C(F)(F)F)c2)c(=O)n4C)cn1; result = 5.54%
SMILES = C[C@@H]1CCN(C(=O)CC#N)C[C@@H]1N(C)c1ncnc2[nH]ccc12; result = 102%
SMILES = O=c1[nH]nc(Sc2ncc([N+](=O)[O-])s2)n1-c1ccc2c(c1)OCCO2; result = 94%
SMILES = C=CC(=O)N1CCC[C@@H](n2nc(-c3ccc(Oc4ccccc4)cc3)c3c(N)ncnc32)C1; result = 118%
SMILES = COC(=O)Nc1ccc(-c2nc(N3CCOCC3)c3cnn(C4CCN(C(=O)OC)CC4)c3n2)cc1; result = 118%

Set 3
Compound: N#C/C(=C(/N)SC1C=CC=CC1)c1cccc(C(O)c2ccncc2)c1 (stereo not drawn)
Effect on: enzyme activity
Mode: inhibitor
Concentration: 0.5 µM
Relative to: control
Measurement: remaining activity
target = CHEK2 (Homo sapiens, UniProt O96017); result = 98.3%
target = STK10 (Homo sapiens, UniProt O94804); result = 89.9%
target = MAPK9 (Homo sapiens, UniProt P45984); result = 117%
target = STK11 (Homo sapiens, UniProt Q15831); result = 101%
target = DAPK1 (Homo sapiens, UniProt P53355); result = 106%
target = OXSR1 (Homo sapiens, UniProt O95747); result = 91.3%
target = PRKACA (Homo sapiens, UniProt P17612); result = 97.1%
target = TGFBR1 (Homo sapiens, UniProt P36897); result = 97.3%
target = PRKCA (Homo sapiens, UniProt P17252); result = 99.5%
target = Cyclin-dependent kinase 5, with p25 (CDK5, Homo sapiens, UniProt Q00535); result = 83.8%
target = Protein kinase C beta type, isoform beta-I (PRKCB, Homo sapiens, UniProt P05771); result = 93.2%
target = GRK3 (Homo sapiens, UniProt P35626); result = 99%
target = IKBKE (Homo sapiens, UniProt Q14164); result = 97.1%
target = TGFBR2 (Homo sapiens, UniProt P37173); result = 118%
target = Cyclin-dependent kinase 4, with cyclin D1 (CDK4, Homo sapiens, UniProt P11802); result = 101%
target = STK39 (Homo sapiens, UniProt Q9UEW8); result = 82.5%
target = MAP3K3 (Homo sapiens, UniProt Q99759); result = 107%
target = IKBKB (Homo sapiens, UniProt O14920); result = 105%
target = Tyrosine-protein kinase Lyn, isoform B (LYN, Homo sapiens, UniProt P07948); result = 97.9%
target = cGMP-dependent protein kinase 1, isoform beta (PRKG1, Homo sapiens, UniProt Q13976); result = 113%
target = CAMK2D (Homo sapiens, UniProt Q13557); result = 108%
target = CAMKK2 (Homo sapiens, UniProt Q96RR4); result = 82.8%

Set 4
SMILES: c1ccc(Oc2ccc(Nc3c4c(nc5ccccc35)CCC4)cc2)cc1
Organism: Leishmania donovani
Strain: DD8
Matrix: promastigotes
Measurement: promastigote number
concentration = 33.33 µM; time = 72 h; result = 1570 and 1240
concentration = 16.66 µM; time = 72 h; result = 1250 and 1550
concentration = 0.66 µM; time = 48 h; result = 2.13e+06
concentration = 0.33 µM; time = 72 h; result = 8.16e+06 and 8.15e+06
concentration = 0.33 µM; time = 48 h; result = 4.33e+06

Some of these lines once more (set 1):
target = NEK9 (Homo sapiens, UniProt Q8TD19); effect on = cell-free assay; result = 93%
target = Tyrosine-protein kinase ABL1, phosphorylated (ABL1, Homo sapiens, UniProt P00519, E255K); effect on = binding; result = 88%
target = PRKCH (Homo sapiens, UniProt P24723); effect on = cell-free assay; result = 32%
target = PRKAA2 (Homo sapiens, UniProt P54646); effect on = cell-free assay; result = 0%
target = Tyrosine-protein kinase ABL1, phosphorylated (ABL1, Homo sapiens, UniProt P00519, F317L); effect on = cell-free assay; result = 89%
target = NEK1 (Homo sapiens, UniProt Q96PY6); effect on = cell-free assay; result = 100%
target = TGFBR2 (Homo sapiens, UniProt P37173); effect on = cell-free assay; result = 82%
